Published values gathered from unrelated publications.
A part holds a random share of what one study measured.

Set 1
Target: Prothrombin, mature alpha-thrombin (F2, Homo sapiens, UniProt P00734)
Technique: aptamer microarray, sandwich
Form: DNA with 2'F-ANA
Matrix: in vitro
Concentration: 200 nM
Setting: whole 15-mer aptamer, many near background
Added: Cy3 exosite-II aptamer, 400 nM
Reading: higher = stronger binding
Sequence: GGTTGGTGTGGTTGG
Modification | mean fluorescence intensity [a.u.]
2'F-ANA at 1 2 5 11 12 14 15 | 49.9
2'F-ANA at 4 5 6 7 8 9 10 13 | 44
2'F-ANA at 5 7 9 10 12 13 14 | 43.8
2'F-ANA at 1 2 4 5 7 8 12 13 | 198
2'F-ANA at 1 2 5 6 11 12 13 | 63.9
2'F-ANA at 2 5 6 7 8 10 11 14 | 47.1
2'F-ANA at 3 5 6 7 8 10 12 15 | 63.1
2'F-ANA at 1 4 6 9 10 11 | 51.1
2'F-ANA at 2 7 9 10 11 12 13 14 15 | 94.8
2'F-ANA at 1 2 3 4 6 7 11 12 15 | 243
2'F-ANA at 1 3 5 6 8 9 12 15 | 105
2'F-ANA at 1 2 3 4 5 6 13 14 15 | 51.1
2'F-ANA at 1 3 5 7 8 11 12 14 | 47.6
2'F-ANA at 2 3 7 9 10 14 15 | 294
2'F-ANA at 1 4 6 7 8 12 13 | 211
2'F-ANA at 4 7 8 9 11 13 15 | 183
2'F-ANA at 1 2 4 5 6 9 12 13 15 | 85.7
2'F-ANA at 1 4 7 10 11 | 49.3
2'F-ANA at 1 2 5 7 8 9 11 12 | 109
2'F-ANA at 1 2 4 5 6 7 8 11 13 | 54.9
2'F-ANA at 2 4 5 12 13 14 | 45.1
2'F-ANA at 1 2 5 8 10 12 13 | 45.3
2'F-ANA at 1 3 5 6 7 8 9 13 15 | 53.1
2'F-ANA at 1 6 7 8 13 15 | 156
2'F-ANA at 1 2 3 5 6 8 10 11 15 | 60.9

Set 2
Target: Histone acetyltransferase KAT6A, winged helix 1, GST fusion (KAT6A, Homo sapiens, UniProt Q92794, residues 1-85)
Technique: protein binding microarray
Form: double-stranded DNA, one strand shown
Matrix: in vitro
Concentration: not given
Setting: 8-mer, flanks averaged, mean of 2 arrays, mostly near background
Baseline: not given
Reading: higher = stronger binding
Construct (chain): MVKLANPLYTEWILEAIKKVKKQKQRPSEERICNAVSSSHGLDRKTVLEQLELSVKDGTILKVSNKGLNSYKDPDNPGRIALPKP
Sequence | E-score
ACGACGTC | 0.0933
GTTAGAAA | -0.118
TCCAACGA | -0.235
ATTATGGA | -0.124
CACCATAA | 0.00808
CATGCTGG | -0.269
CATGAAAG | -0.197
CCCTTTTC | -0.192
GGGCCCAA | -0.204
AAGCTTTC | 0.0694
CCGTCACA | 0.149
TCCCTGCA | -0.0847
AACAGGCC | -0.0685
CGTGAACC | 0.0677
ATCTGTCA | -0.0856
AATTTAAT | -0.113
ACTAAAAA | 0.00711
ACATGCAT | 0.00965
GGATGAAA | -0.0856
GCTGTAGA | -0.0506
AGTCAGTA | -0.0328
ACCCGTAC | 0.334
CGCCTAAA | 0.134

Set 3
Target: RING finger protein unkempt homolog, zinc fingers 1-6, GST-SBP tag (UNK, Homo sapiens, UniProt Q9C0B0, residues 30-357)
Sequence of UniProt Q9C0B0 (30-357, looked up): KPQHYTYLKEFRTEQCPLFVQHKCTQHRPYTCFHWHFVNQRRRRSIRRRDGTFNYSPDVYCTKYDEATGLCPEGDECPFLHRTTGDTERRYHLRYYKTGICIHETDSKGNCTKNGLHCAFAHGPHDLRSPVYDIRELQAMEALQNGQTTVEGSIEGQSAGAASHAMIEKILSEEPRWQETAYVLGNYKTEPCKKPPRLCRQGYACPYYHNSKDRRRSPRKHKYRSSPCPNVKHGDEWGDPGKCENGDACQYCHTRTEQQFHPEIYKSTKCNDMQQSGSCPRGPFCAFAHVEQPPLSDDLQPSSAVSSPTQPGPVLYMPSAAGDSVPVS
Technique: RNA Bind-n-Seq
Form: RNA
Matrix: in vitro
Concentration: not given
Setting: RNA with constant flanks, human-mouse chimeric sites, ends assumed
Baseline: input RNA pool
Reading: higher = stronger binding
Constant ends, left off below: GGGAGUUCUACAGUCCGACGAUC … CAACAGAGGAUUGAGCAUCA
Sequence | bound/input enrichment
AAAGAGAAACUAAAGCAACUAAUAGAGAAGAGGAUUGGCAAAGAGAAUUUCAUAGAGAAACUAGGAUUUAUUAGCAAAACAUGAGUUUAUUCCAGAGCGUCUCAGAAACCCCAGCCAAAC | 12.1 ratio
GUUGCCAGCUUCCGGUUGGCCUCCAUCCGGUUCUCUCCUGAGCUACGUGUCUCUACGUUUUAGGUGUGCCAUCCAACAAACAUGGAUCAGGUAAUGCAGUUUGUGGAGCCCAGCCGGCAG | 0.138 ratio
AGAAUCUUGGGACUGUUUUACUUAAUUGGUCAUUGGUAGCUUAACAAACAUGGAGAUAAGAUUAGAAAUCUUGACAUCAACAAGUAUUAAGCAGAAAAAACCAUGGCCACGUGUCUCCUG | 0.119 ratio
GUGCCCUUCUCGCUGCUCCUGCGGGGCAGCUGGGAACACCCCUUCCGCUGGUACCCUGCACACAGCCGCCUCUUCGAUCAAGCUUUCGGGGUGCCCCGGUUGCCCGAUGAGUGGUCGCAG | 0.128 ratio
CAGCGCCGAGGCCGCGGGUGCCCGCCGGGCCUCCCCAGCAGCAGCCAUGGGCAUCAAAUUUUUAGAAGUUAUUAAACCAUUCUGUGCAGUUCUACCAGAAAUUCAGAAACCGGAAAGGAA | 4.47 ratio
UCCCAAAUUAUAAGGCAAGAAGGAGCCUUGAGACAAACACUCCACACACAGGGAAGGCGAUAACAUUGUACAUUGGUUUACAUUUUUUCCCCCUGUGGAUUUUUCUAUCCUAGUGCUUGC | 0.224 ratio
CUGAAAAACACAGAUAUCAAAGUUGUUGACUUUGGAAGUGCAACAUAUGAUGAUGAACAUCACAGUACUUUGGUGUCCACAAGGCACUACAGAGCUCCCGAGGUCAUUUUGGCUUUAGGU | 0.34 ratio
CAGUCCCCGUGUCCCAGUGCAGGACGAUGUGAACAAAUCGAAGACAUGGACCCUCUAUUGUAGUUCUUGAUUCUCGAAAUGUGCUAUUAUUGUUUGUCUUUUUUUUUUUUUUUUUAAAGA | 1.34 ratio
GAUGAUAAUCACACAAACAAGUCACUGUUACAUGACCAGCCUUGGGAUUCUUUUCCUGAUUAAUAUUCUCCCUGGAACCACUAGCCAAGGGGAAUCAAGACGACAAGAACCCGGGGACUU | 0.165 ratio
GGCUGCUGGUGACUGUCGGGAGCCGUCUGGAGUUCCCGCCGGAGCGCGGCCAGACUAAUUUUAGAAAAUGCCAAGUAGGAAGUUUGUUGAGGGUGAAGUGGUCAGAGGCCGAUGGCCUGG | 2.44 ratio
UGGGCACUCUAUCAGAUAUAUUAAUUUUUUAAUGUAGAUGUAAUUUUAAAAAUGAAUGGCUACUUUACACGUUUAACUAGGGUUUUACUACAUAUGUGUACAUAUGUAUAUAUAUAUAUA | 17.3 ratio

Set 4
Target: RNA binding protein fox-1 homolog 2, RRM domain, GST-SBP tag (RBFOX2, Homo sapiens, UniProt O43251-10, residues 100-194)
Technique: RNA Bind-n-Seq
Form: RNA
Matrix: in vitro
Concentration: 365 nM
Setting: natural RNA segment, single round, ends assumed
Baseline: no-protein control
Reading: higher = stronger binding
Constant ends, left off below: GGGAGUUCUACAGUCCGACGAUC … UGGAAUUCUCGGGUGCCAA
Target sequence (chain): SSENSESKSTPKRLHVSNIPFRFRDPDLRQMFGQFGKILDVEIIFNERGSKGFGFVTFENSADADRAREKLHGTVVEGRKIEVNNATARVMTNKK
Sequence | RBNS enrichment (R)
AAAAGAAUCUUGUAACUUUAUUCUUUUUUCUCCUGCUGAAAAAAAAAAUUAAACCAAUCGUAUGAAAGUUUGGUUUUCUUGUUUCACCCCUUCUCCUAAGUGCCCCCUGG | 0.816
AACCUGCAGAAAUCUGGUAAGACUUAAAUUCAGUGUGAGGAAUAACUCUAGUUCUCUCCUAUGAGCAUUUCCUAAAAGCCAUCUGAUUUGGCAUUCUUACUGGAGCUGCA | 0.625
CUAAAGCCAUUGGCUGUAAUGAGUGUUACUGUGUGAGGCUUUGUGUAUGAGAUCUGUGCUGUAAGGCUCCCAGUGUUCCUUCAGCAUUAAUGCUUUCCCACCUGCUCCAA | 0.886
AGUGGCUGUUCUAGGCAUAGCCCUCCCUGAACUAGAAAGGAGAGUAACCAGUUUGCUAUGCUGCAUCUAACCAGACACACCUGACUUAGUAGUAACUCUAAGAACCCUUA | 0.558
UUGAAUUAAAGAUACCGAUUAAAGAUUCUACCCUACAAAUCAUGUGUAUUUGUAUAUUUUAGGUUAAAAAGACUUUAUAUGUUUCAUUCACUUUCCCAUGAAACUGCUGA | 0.55
CCCAGGAGCCAAAACUCACGCUCGGGCAGCAGCAGCUGAGGCUUGAGGAAGCUGGUGUCCUAAGACACUGAAACCCAGUGCUCAUUGGAGCUGCCAGCCACAGGUUUCUA | 0.325
AACUUCAGUUUUGCCAAGUGCAAUGGUGUUGCCUUCUUUAAAAAAUGCCGUUUUCUUACACUACCAGUGGAUGUCCAGACAUGCUCUUAGUCUACUAGAGAGGUGCUGCC | 0.504
UGCUGUCUUGCAGUUUUACCCCUGUCCACUCUCUGCCAUCCAGAAGCAAGCGUUGGUCAGUGUUGUGUCCCAGUAGCUGGGAAGGGCACGGCUUUGCCCUGAUCUGUUCU | 0.244
UUUAUCUAGAUUUUUAAAUGUAGCUUGUCAUAACAAAAUUUUAAUUACAAUUGGCUUGUAUGAGAAGAAAAAGUAUUUUUAUUGUUUUGAGUGAUGACGCAGAGACUCAG | 0.622
CACAGUCUCUCCACCUUUGCUUCUGAAUUCUUGUUUUUGAGCAAUAAACAGAAAAUCGCCACUUGUAUUGGGCCGGUGGAGUGUGGGGAGGUGGUCACCGAGCACUGGAC | 0.69
UGUGGGAGCCUUCAAUCCUCAGUGGCAUGGGAAACAGCUGAGUACUUGCCCCGUGACUUCAGUUUUCUAUAGGAAUUUUAUUAAAGAGUGUUUAAUUUUGUUGUCCUUCU | 13
CUCCAAGUUUCUGCCUAGGCGCCUGUGCGUUUCCUUUCUGUGACGGGAUUAGCUUAGACAUCCUUGCAAAGCGAUCACUUUCAAUAAAUUGGGAAAUUGCUGCUCCAGCA | 0.543
